Experimental data pooled from the literature.
Every numbered part comes from another study and shows a few of its results, in no order. Substitutions count along the parent as printed.

Sample 1
Target: Histone acetyltransferase KAT6A, winged helix 1, GST fusion (KAT6A, Homo sapiens, UniProt Q92794, residues 1-85)
Method: protein binding microarray
Molecule type: double-stranded DNA, one strand shown
Matrix: in vitro
Tested at: not given
Setting: 8-mer, flanks averaged, mean of 2 arrays, mostly near background
Relative to: not given
Direction: higher = stronger binding
Construct (chain): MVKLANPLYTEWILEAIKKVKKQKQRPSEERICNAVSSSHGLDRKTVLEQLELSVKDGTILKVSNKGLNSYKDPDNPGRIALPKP
| Strand | E-score |
| --- | --- |
| TCGTTGAA | -0.184 |
| ACTGGGTA | -0.0601 |
| AGCTTTGG | -0.235 |
| ATACGAGG | -0.0988 |
| CGCTTACG | 0.344 |
| ACAGCAAG | -0.0963 |
| CCACTGAG | -0.219 |
| AATTAGGG | -0.115 |
| GATCTACC | -0.0966 |
| CTATGGTA | -0.101 |
| CCGAGTGC | 0.182 |
| CATCTTCA | -0.266 |
| CGTTGTTC | 0.0497 |
| CGGGCGTA | 0.352 |
| ACACCCTA | -0.214 |
| AGCGCAGG | 0.268 |
| CATCCGGG | -0.0227 |
| CCCTGAAA | -0.128 |
| GCATATAA | -0.049 |
| CCTTTATC | -0.113 |
| CCCAATGC | -0.191 |
| GGACGCGA | 0.115 |
| AGACTGGA | -0.194 |
| CACGTAAA | -0.168 |
| GTTGGCCA | -0.173 |

Sample 2
Target: Cyclic AMP-responsive element-binding protein 1, full length (CREB1, Homo sapiens, UniProt P16220, residues 1-327)
UniProt P16220, sequence (whole entry, looked up): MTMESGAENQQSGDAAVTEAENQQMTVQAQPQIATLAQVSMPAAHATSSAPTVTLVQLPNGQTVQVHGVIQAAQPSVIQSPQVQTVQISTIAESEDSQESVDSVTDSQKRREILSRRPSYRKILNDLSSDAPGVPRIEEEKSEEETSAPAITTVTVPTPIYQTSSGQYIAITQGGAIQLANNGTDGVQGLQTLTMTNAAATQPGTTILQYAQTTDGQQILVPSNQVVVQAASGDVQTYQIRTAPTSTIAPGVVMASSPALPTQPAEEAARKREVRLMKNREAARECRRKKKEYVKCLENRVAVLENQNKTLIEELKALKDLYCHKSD
Method: protein-binding microarray
Molecule type: hairpin DNA
Matrix: in vitro
Tested at: not given
Setting: whole hairpin DNA, median over replicate spots
Relative to: not given
Direction: higher = stronger binding
| Strand | median fluorescence [a.u.] |
| --- | --- |
| GAGGCCGGCTGACGTCAGCCTCCTGGCTGACGTCAGCCGGCCTCACACTC (5mC at 34) | 5370 |
| GAGGCCGGCGACGTCGTGCCTCCTGGCACGACGTCGCCGGCCTCACACTC (5mC at 9 15 29 35 37) | 4280 |
| GAGGCCGACGACGCCGTGCCTCCTGGCACGGCGTCGTCGGCCTCACACTC (5mC at 9 14 15 29 35) | 3670 |
| GAGGCCGGCTGATGTCAGCCTCCTGGCTGACATCAGCCGGCCTCACACTC | 3370 |
| GAGGCCGGATTACGTCAGCCTCCTGGCTGACGTAATCCGGCCTCACACTC | 10000 |
| GAGGCCGGATGATGTCAGCCTCCTGGCTGACATCATCCGGCCTCACACTC | 5030 |
| GAGGCCGCGGACGTCGTGCCTCCTGGCACGACGTCCGCGGCCTCACACTC (5mC at 15 29 35) | 3330 |
| GAGGCCGGCTGACGCGAGCCTCCTGGCTCGCGTCAGCCGGCCTCACACTC (5mC at 15 29) | 5370 |
| GAGGCCGGATGACCGCAGCCTCCTGGCTGCGGTCATCCGGCCTCACACTC | 3150 |
| GAGGCCGACGACGTCGAGCCTCCTGGCTCGACGTCGTCGGCCTCACACTC (5mC at 9 15 29 35) | 3730 |
| GAGGCCTGCTGACGTCAGCCTCCTGGCTGACGTCAGCAGGCCTCACACTC | 16800 |
| GAGGCCGGATGACGCCAGCCTCCTGGCTGGCGTCATCCGGCCTCACACTC (5mC at 15) | 15300 |

Sample 3
Target: CCND3, cyclin fold, Cln2 fusion (human)
Method: yeast growth competition, sequencing
Matrix: yeast
Setting: weak parent motif
Relative to: not given
Direction: higher = stronger binding
Starting sequence: CDKN1C docking peptide (human); TSACRSLFGPVDH
| Change | normalised enrichment score |
| --- | --- |
| S6A | 0.116 |
| R5K F8L | 0.0903 |
| V11A | 0.132 |
| H13A | 0.129 |
| R5A | 0.0552 |
| D12A | 0.16 |
| S2A | 0.197 |

Sample 4
Target: Ras GTPase-activating protein-binding protein 1, RRM domain (G3BP1, Homo sapiens, UniProt Q13283)
UniProt Q13283, sequence (whole entry, looked up): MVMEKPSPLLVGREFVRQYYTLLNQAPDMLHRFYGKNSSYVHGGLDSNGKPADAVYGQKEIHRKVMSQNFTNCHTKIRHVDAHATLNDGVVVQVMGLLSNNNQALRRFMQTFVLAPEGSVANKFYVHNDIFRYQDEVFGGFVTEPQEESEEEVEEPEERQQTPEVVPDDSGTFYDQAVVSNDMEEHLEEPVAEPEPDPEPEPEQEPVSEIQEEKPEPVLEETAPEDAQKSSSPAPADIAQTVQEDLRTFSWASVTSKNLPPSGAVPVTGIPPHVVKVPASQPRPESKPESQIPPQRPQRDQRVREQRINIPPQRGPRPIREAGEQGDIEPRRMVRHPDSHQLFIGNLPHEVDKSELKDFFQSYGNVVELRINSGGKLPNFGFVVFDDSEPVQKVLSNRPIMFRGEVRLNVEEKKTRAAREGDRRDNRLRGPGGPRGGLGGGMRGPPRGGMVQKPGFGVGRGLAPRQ
Method: RNA Bind-n-Seq
Molecule type: RNA
Matrix: in vitro
Tested at: 1 µM
Setting: whole 134-nt RNA, ends assumed
Together with: 150 mM KCl
Relative to: input library
Direction: higher = stronger binding
| Strand | log2 enrichment |
| --- | --- |
| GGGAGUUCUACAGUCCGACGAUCUCAAGUCCUGUGCUACACAUCGUAUGUACCGAAUCGGAAAGGAAAAAAAGGUGGAAAGUAUUAUGUUACGCCGUUCGGAUCUGCACUUCCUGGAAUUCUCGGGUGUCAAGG | -0.151 |
| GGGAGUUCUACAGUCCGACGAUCUGCAGACGGGGAACCUGCUGAACUGGGGCCGCCUGCGGAAGAAGUGCCCGUCCACGCACAGCGAGGAGGUGAGCGUGGCGACACUCGCCGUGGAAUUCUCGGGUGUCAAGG | -0.815 |
| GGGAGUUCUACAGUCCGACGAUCGUCCUGUGCUACACAUCGUAUGUACCGAAUCAAACCCCCCCAAAUUUUUAAACCCAAAAAAGUAUUAUGUUACGCCGUUCGGAUCUGCACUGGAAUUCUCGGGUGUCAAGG | -0.407 |
| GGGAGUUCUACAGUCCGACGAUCUUCCAUUGUGAACGUGCCUGGUGAGUCUACUCUUCGCCGAGAUUUCCUGAGACUGCAGCAGGAGAACAAGGAACGUUCCGAGGCUCUUCGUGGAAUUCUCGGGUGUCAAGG | 0.0316 |
| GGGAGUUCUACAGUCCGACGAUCCUGUGCUACACAUCGUAUGUACCGAAUCGGAAAAAAAGGGAAAAAAAGGGGAAAAAAAGGGGAAAGUAUUAUGUUACGCCGUUCGGAUCUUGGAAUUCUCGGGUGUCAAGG | 0.174 |
| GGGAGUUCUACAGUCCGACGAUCUCCUGUGCUACACAUCGUAUGUACCGAAUCGGGGUUUUUGGGGUUUUUUUGGGGUGGGGAAAGUAUUAUGUUACGCCGUUCGGAUCUGCAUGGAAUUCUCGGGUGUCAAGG | 0.584 |
| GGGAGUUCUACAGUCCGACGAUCUCAAGUCCUGUGCUACACAUCGUAUGUACCGAAUCGGAAAGGUUUUUGGUUUGGAAAGUAUUAUGUUACGCCGUUCGGAUCUGCACUUCCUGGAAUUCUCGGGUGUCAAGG | -0.315 |
| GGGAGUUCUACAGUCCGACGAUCAAGUCCUGUGCUACACAUCGUAUGUACCGAAUCGGUGGAAAAAAAGGAAAAAAAGGAAAGUAUUAUGUUACGCCGUUCGGAUCUGCACUUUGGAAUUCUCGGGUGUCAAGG | 0.0534 |
| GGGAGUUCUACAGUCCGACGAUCCCUCAAGUCCUGUGCUACACAUCGUAUGUACCGAAUCGGGUGGUGGGUGGGGAAAGUAUUAUGUUACGCCGUUCGGAUCUGCACUUCCAGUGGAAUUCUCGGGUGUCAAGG | 0.259 |
| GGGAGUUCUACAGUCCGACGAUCCUGUGCUACACAUCGUAUGUACCGAAUCGGGGCCCCCCGGGCCCCCCGGGGCCCCCCGGGGAAAGUAUUAUGUUACGCCGUUCGGAUCUGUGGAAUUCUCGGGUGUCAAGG | -0.762 |
| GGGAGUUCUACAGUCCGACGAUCGGAAGGGGGCUUGCGCCACGGCAGUGAAUCUUCAUGGAUCUUCAUGCAGCCAUACAAACCCUGGUUCCAACAGAAUGGUGAAUUUUCGACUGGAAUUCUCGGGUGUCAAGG | -0.171 |
| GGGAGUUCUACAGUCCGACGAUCCAAGUCCUGUGCUACACAUCGUAUGUACCGAAUCGGAAAGGAAAGGGGAAAGGGGAAAGUAUUAUGUUACGCCGUUCGGAUCUGCACUUCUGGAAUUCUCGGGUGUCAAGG | -0.0796 |
| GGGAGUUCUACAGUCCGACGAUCAGUCCUGUGCUACACAUCGUAUGUACCGAAUCGGGGAAAAAAAGGGGAGGGGAGGGGAAAGUAUUAUGUUACGCCGUUCGGAUCUGCACUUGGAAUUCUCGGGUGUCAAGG | 0.868 |
| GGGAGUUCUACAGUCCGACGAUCUGGCCCUGGUGGCAUACGGGGAGGAAGAGGUGGCCUCAUGGAUCGUGGUGGUCCCGGUGGAAUGUUCAGAGGUGGCCGUGGUGGAGACAGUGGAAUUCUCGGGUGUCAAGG | 0.901 |

Sample 5
Target: Centromere-binding protein 1, full length, His-tagged (CBF1, Saccharomyces cerevisiae, UniProt P17106, residues 1-351)
UniProt P17106, sequence (whole entry, looked up): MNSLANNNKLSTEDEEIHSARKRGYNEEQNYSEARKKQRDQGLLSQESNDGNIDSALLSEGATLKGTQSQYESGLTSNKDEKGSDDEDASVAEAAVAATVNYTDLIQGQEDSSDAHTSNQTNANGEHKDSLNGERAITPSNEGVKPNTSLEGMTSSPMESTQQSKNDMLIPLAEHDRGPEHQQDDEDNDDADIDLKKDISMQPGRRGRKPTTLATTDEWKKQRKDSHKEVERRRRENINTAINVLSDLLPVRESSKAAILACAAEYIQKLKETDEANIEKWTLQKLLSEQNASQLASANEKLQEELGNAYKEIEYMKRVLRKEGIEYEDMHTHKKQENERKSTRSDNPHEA
Method: competition protein-binding microarray
Molecule type: double-stranded DNA, one strand shown
Matrix: in vitro
Tested at: 2 µM
Setting: whole 60-bp probe, lowest competitor level
Together with: Pho4 competitor, 0.05 µM
Direction: higher = stronger binding
| Strand | fluorescence intensity |
| --- | --- |
| CCATCTTGTACTCACCACATGCCTATTAGTCACTAGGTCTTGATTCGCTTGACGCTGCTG | 114 a.u. |
| GTCTTGTCTCATTTTCACGTGACGTTCCCCACTTCAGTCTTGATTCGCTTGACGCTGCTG | 3960 a.u. |
| AAAGCGGTAATTTGTATAGTGGGTGCAGATATCTATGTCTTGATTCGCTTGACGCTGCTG | 96.6 a.u. |
| TTTAGTGTCTCTGCCTATGTGATGGGTCTGTTTCCTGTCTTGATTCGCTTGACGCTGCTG | 69 a.u. |
| CCTTGGTCTGTAGAGCACATGGCATTTCCAGGTCTCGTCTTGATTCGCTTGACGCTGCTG | 129 a.u. |
| CGTCCTAGTGATTGTAGAGTGGGTGCCATGAGGAAGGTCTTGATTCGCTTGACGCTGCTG | 82.4 a.u. |
| AAATTACTAAGTTGCGATGTGGGTGACGCCGTATGAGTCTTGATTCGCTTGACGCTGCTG | 58.9 a.u. |
| CATACCCAACCTTGAACCGTGGGTGAAGATATTTGTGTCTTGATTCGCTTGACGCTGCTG | 72.1 a.u. |
| TTCAGGGCTGCTCACAACGTGATGGATTTGAATTGAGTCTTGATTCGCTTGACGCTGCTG | 332 a.u. |
| TGCTGTCATTTGAGTCAGGTGTAGAGCAGGTTAGAAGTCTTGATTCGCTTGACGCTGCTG | 188 a.u. |
| TGTAAATAACCGTGGAAGAATTTGTATTATCATCGTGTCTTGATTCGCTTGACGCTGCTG | 97.6 a.u. |
| CTCTTCCTCAAGCGTCACCTGATCTCTTCTTTCCCAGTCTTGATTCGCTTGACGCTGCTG | 1630 a.u. |
| CAGTATTTATCAGTTCTCGAGCAAGCAGAGAAAAGTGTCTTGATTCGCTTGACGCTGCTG | 71.4 a.u. |
| CGGGGTTAAGTTTGGAAGGTGGGTGGCTTGCAGCAGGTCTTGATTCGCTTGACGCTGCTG | 75.8 a.u. |
| AGGATTTTCAACCATCATGTGACAGTCGAAGAACGCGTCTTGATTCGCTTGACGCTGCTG | 1190 a.u. |
| GTAAAACGCCTCTTCCACGTTGATTGCTTGCTTAGCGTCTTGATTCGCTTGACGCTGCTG | 86.2 a.u. |
| CTAACGAAGGTTTTTCACGTGTCATACAAGCCAAGTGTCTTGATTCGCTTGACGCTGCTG | 1120 a.u. |
| CGTCCTAGTGATTGCATCGTGGGTGCCATGAGGAAGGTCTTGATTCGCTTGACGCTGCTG | 96.3 a.u. |
| AGCCCGCTTCCCGACCACGTGGAGGAACCCTCCCCAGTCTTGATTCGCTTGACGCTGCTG | 767 a.u. |
| AGGGCATTGTCTACTCACGTGGTAATCAAATTCCAGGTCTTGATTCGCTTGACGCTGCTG | 2460 a.u. |
| AGGCGAATTCTTGTCATCGTGCCGACAGCAAGCCATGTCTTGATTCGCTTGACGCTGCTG | 74.2 a.u. |
| GTACTGTTTCATTTAAACGTGTTTTCACTTGATCCAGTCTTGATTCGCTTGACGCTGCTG | 116 a.u. |
| TCTGTGATACAGCGTCACATGACAATTTAAAAGTGTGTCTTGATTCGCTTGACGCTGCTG | 2460 a.u. |
| AAGAAGTACGACCGACACGTTAGTATGCCTTTGTTGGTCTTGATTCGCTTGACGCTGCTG | 63.7 a.u. |
| AAATTACTAAGTTGATGGGTGGGTGACGCCGTATGAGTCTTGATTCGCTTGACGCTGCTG | 65.6 a.u. |

Excerpt of the above (sample 1):
| Strand | E-score |
| --- | --- |
| AGACTGGA | -0.194 |
| CATCTTCA | -0.266 |
| CGGGCGTA | 0.352 |
| CGCTTACG | 0.344 |
| AGCGCAGG | 0.268 |
| ACAGCAAG | -0.0963 |
| AATTAGGG | -0.115 |
